Published values of several laboratories.
Each numbered part is a random draw from the data of one study; scales do not carry over between parts.

Series 1
Target: Max dimerization protein 1, bHLH-zipper, MAX partner unstated (MXD1, Homo sapiens, UniProt Q05195, residues 56-136)
Technique: protein-binding microarray
Form: double-stranded DNA, one strand shown
Sample: in vitro
Tested at: not given
Setting: k-mer, scored over probes, only values ≥0.25
Reading: higher = stronger binding
Measurement: E-score
Residues (chain): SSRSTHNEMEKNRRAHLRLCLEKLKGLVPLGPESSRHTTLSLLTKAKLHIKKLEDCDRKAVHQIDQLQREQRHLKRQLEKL
CACCCCCG: 0.251
GGGCACAC: 0.261
CATGTTAC: 0.306
AGCTCGTG: 0.258
CGTGGTTA: 0.285
CCATGTGA: 0.409
AAGCGCAT: 0.262
GCACGCGC: 0.384
AACACGTT: 0.395
ACATGCGA: 0.393
CCCCACGA: 0.301
AAACCATG: 0.366
CATGGCAG: 0.321
ATGCACGA: 0.348
AGAGCATG: 0.382
CACGTGTC: 0.479
CAGGTGGC: 0.281
CACGAGGA: 0.444
CCGCCCCA: 0.361

Series 2
Target: RING finger protein unkempt homolog, zinc fingers 1-6, SBP tag (UNK, Homo sapiens, UniProt Q9C0B0, residues 30-357)
UniProt Q9C0B0, sequence (30-357, looked up): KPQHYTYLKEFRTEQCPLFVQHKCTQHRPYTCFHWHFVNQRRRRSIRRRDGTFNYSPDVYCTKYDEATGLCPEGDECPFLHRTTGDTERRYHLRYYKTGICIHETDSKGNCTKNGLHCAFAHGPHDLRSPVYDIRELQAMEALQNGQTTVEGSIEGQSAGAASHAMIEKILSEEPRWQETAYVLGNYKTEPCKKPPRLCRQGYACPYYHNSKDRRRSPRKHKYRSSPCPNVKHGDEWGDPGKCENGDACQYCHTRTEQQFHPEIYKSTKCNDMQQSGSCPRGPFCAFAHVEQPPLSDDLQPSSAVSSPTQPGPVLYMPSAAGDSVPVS
Technique: RNA Bind-n-Seq
Form: RNA
Sample: in vitro
Tested at: 100 nM
Setting: RNA with constant flanks, vertebrate orthologous sites, ends assumed
Baseline: input RNA pool
Reading: higher = stronger binding
Measurement: bound/input enrichment
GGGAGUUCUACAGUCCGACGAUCCUAGCCUUUCACUUAGGGUCAGCCUCAAAUCUAUAGGAUUUAUGACAAAUGUGUUAUAUCUAGUUGAGUUAAAUAUUUUUAUUAGCCUGUAAAUAAAGAUAGCAUCUCCUACAUUAAAAUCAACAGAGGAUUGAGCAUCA: 0.864 ratio
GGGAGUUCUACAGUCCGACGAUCAGCAACUCAAGGAUUCAGAACUGGGUUUACAAAUGUCCCAAGCAGAUAUGGAACAAACACUCGUGGUCAAUCCCGACCAUAAUAAACAGCAUUAUUUAUUGUACUUAAGGGUAUUGACUUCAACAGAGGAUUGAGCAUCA: 0.39 ratio
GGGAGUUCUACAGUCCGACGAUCUGUCUGCCUCAUGCUAAAAUUUACACAGUAGACCAUUUGUCAUCCAUGCUGUCCCACAAAUAGUUUUUUUGUUUACGAUUUAUGACAGGUUUAUGUUACUUCUAUUUGAAUUUCUAUAUUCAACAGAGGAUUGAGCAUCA: 1.92 ratio
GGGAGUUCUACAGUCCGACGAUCGGUUGAUGUUCUGAAGAAUCACUUAGUAAAAGAAGGUCGGGUAGAUGAAGAAAUUGCACUUAGAAUUAUCAAUGAGGGUGCUGCCAUCCUUCGGAGAGAGAAAACCAUGAUAGAAGUAGACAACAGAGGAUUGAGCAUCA: 1.15 ratio
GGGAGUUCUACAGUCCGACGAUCCAACUCAAUGGUUGAAGGUUCGGAACUCAAAAAGGUUCGUUCCAACUCCAGGAUUUAUCAUCGGUAUUUUUUGCUGGAUGCCGACAUGCAAAGCCUGAGGUGGGAGCCAUCUAAGAAGGACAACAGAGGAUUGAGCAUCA: 0.112 ratio
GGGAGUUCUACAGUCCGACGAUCGUCGUCUGACUGGAUGAAGACUGUCCCGAGUUAUAACCAAACUAAUAGCUCCAUGGACUUCAGAAAUUAUAUGAUGAGAGAUGAGAAUCUGGAACCACUGCCCAAAAACUGGGAGAUGGCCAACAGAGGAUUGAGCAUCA: 0.353 ratio
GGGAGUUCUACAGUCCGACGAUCAAGUAUCCCAGUUUACCGUGUUGAGUUGGCAUUGUACAGAAAUUAACAGCCAUAUUGGUCUAGAAACGUUAAACUUAAUUUUUUUCCAUUUGUACAGGGGUAACGCACUGUAUUAAAUAUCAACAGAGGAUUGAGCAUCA: 0.729 ratio
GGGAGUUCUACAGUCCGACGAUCGGGACGUUUUGAUGUAAAAAUUGAAGUUAAGAGCUGAUCACAAGCACAAAUCUUUCCCACUAGCCAUUUAAUAAGUUAAAAAAAGAUACAAAAACAAAAACCUACUAGUCUUGAACAAACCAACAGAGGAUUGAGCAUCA: 2.99 ratio
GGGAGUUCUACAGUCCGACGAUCACAGGAGCAGCAUAGACUAUAUGAGCUUUGGGGAAAUGAGCUUUGCUUUUUAUUUUUGAAUAGGAUACUUUUAUAUGAUGGGUGCUUUGAGUGUGAAUACAGCAGGCUCUUCAUUUGAGACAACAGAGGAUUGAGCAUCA: 1.88 ratio
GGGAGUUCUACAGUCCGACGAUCUCCUAAUAUUUAAUUUGCUCAUUUCAAAAUAUUACUUACCUAACCUUAGGUAAUUCAAUCUACAGUUUUCAAUGGUAGUAUAUUGACAGUUUUCACCUAAGUCCUCUCAUAAAGAGGACGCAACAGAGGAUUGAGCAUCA: 0.561 ratio
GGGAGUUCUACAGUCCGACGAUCACAGGAGCAGCAUAGGCUGUUUGAGCUUUGGAGAAACGAGCUUUGCUUUUUAUAUUUAACUAGGAUACUUUUACGUGAUGGGUGCUUUGAGUGUGAAUGCAGCAGGCUCUUGUUUCCGAGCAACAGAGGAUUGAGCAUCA: 0.925 ratio

Series 3
Target: Prothrombin, mature alpha-thrombin (F2, Homo sapiens, UniProt P00734)
Technique: aptamer microarray, sandwich
Form: DNA with 2'F-ANA
Sample: in vitro
Tested at: 200 nM
Setting: whole 15-mer aptamer, many near background
Added: Cy3 exosite-II aptamer, 400 nM
Reading: higher = stronger binding
Measurement: mean fluorescence intensity
Oligonucleotide: GGTTGGTGTGGTTGG
2'F-ANA at 3 5 6 7 8 9 11 12 15: 193 a.u.
2'F-ANA at 1 3 8 13 15: 477 a.u.
2'F-ANA at 1 3 4 5 7 9 10 13 14 15: 72.8 a.u.
2'F-ANA at 3 6 12 13 14: 577 a.u.
2'F-ANA at 1 2 3 5 7 11 12 13 14 15: 58.8 a.u.
2'F-ANA at 3 5 6 7 11 12 13: 141 a.u.
2'F-ANA at 1 2 6 7 8 9 11 14: 57.5 a.u.
2'F-ANA at 3 4 5 6 11 13 15: 60.9 a.u.
2'F-ANA at 1 6 7 9 11 13 14 15: 54.7 a.u.
2'F-ANA at 2 5 6 8 12 13 14: 46.1 a.u.
2'F-ANA at 1 2 3 4 5 7 8 13 14: 66 a.u.
2'F-ANA at 2 3 4 5 8 9 10 13 15: 50.6 a.u.
2'F-ANA at 2 3 6 8 9 10 11 14: 267 a.u.
2'F-ANA at 4 5 6 9 10 11 12 13 15: 82.5 a.u.
2'F-ANA at 1 2 3 4 5 7 8 10 11 13: 46.5 a.u.
2'F-ANA at 8 9 10 11 12 13: 184 a.u.
2'F-ANA at 2 3 4 6 7 8 10 13 14 15: 135 a.u.
2'F-ANA at 1 2 3 4 9 11: 124 a.u.
2'F-ANA at 1 3 4 9 10 11 12 13 14 15: 53.8 a.u.
2'F-ANA at 3 4 8 10 11 12 13: 291 a.u.
2'F-ANA at 1 3 4 7 8 9 14 15: 79.6 a.u.

Series 4
Target: Sal-like protein 4, full length isoform A (SALL4, Homo sapiens, UniProt Q9UJQ4, residues 1-1053)
UniProt Q9UJQ4, sequence (whole entry, looked up): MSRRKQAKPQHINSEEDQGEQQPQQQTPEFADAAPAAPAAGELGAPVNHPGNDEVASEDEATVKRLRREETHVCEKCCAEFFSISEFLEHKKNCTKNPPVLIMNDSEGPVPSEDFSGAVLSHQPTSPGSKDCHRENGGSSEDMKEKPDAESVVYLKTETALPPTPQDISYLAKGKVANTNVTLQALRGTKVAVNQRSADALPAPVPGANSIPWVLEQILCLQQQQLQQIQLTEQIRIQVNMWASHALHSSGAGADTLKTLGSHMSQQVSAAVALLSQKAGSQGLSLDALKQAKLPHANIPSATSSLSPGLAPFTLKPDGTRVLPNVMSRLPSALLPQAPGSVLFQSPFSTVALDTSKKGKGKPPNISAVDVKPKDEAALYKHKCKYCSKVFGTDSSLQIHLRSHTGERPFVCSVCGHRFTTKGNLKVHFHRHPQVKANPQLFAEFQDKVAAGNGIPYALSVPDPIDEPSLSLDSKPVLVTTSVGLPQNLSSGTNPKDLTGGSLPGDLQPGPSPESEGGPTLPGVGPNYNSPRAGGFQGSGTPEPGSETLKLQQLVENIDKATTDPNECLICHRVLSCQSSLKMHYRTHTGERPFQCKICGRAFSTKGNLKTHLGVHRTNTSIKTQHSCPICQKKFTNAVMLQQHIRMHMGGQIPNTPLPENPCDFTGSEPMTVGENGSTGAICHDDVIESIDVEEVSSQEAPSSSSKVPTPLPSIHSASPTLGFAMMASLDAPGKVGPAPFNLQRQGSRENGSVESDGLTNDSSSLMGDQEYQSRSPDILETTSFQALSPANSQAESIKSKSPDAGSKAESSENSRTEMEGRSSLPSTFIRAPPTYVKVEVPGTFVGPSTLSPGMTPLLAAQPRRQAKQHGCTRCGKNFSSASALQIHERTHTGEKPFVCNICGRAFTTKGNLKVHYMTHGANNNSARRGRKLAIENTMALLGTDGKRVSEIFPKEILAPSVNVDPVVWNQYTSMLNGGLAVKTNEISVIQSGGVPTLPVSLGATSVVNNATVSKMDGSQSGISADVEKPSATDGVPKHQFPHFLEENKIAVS
Technique: universal PBM
Form: double-stranded DNA, one strand shown
Sample: in vitro
Tested at: 600 nM
Setting: 8-mer, flanks averaged, mean of replicates
Reading: higher = stronger binding
Measurement: E-score
GGATAACA: 0.0997
GCCCAGAC: -0.404
AATGAAAG: 0.219
AAAAGAAA: 0.237
AGTCCGGG: -0.313
ACTTTTCC: 0.182
GATGAATA: 0.311
ACTTTGCC: -0.112
AGATCAAC: 0.0878
AGGTACTC: 0.0455
AGAGGCAC: -0.143
AGAGGAGC: -0.217
GCCATTAC: -0.0591
CCTCGGAG: -0.315
ACGTTTTC: 0.0903
GGTTCTGA: -0.12
CTCTCGAC: -0.175

Series 5
Target: Histone acetyltransferase KAT6A, winged helix 1, GST fusion (KAT6A, Homo sapiens, UniProt Q92794, residues 1-85)
Technique: protein binding microarray
Form: double-stranded DNA, one strand shown
Sample: in vitro
Tested at: not given
Setting: 8-mer, flanks averaged, mean of 2 arrays, mostly near background
Baseline: not given
Reading: higher = stronger binding
Measurement: E-score
Residues (chain): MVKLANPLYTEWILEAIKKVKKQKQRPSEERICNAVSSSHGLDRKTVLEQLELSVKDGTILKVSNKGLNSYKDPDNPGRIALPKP
AAAGTTCG: -0.195
AGTGTCAG: -0.152
AACCTCCT: -0.0347
GCTAACGA: 0.0124
ATGCGCAG: 0.273
AGGGAAGA: -0.091
CCGCACGG: 0.395
AAATTCCT: -0.106
GTTAGGAA: -0.126
TCTTTAAA: -0.136
ACGGTAGG: 0.166
TAGTACGA: -0.043
ACCTCGCC: 0.207
GGTGTTGA: -0.0106
GAGAATAC: -0.0284
CCAACAGG: -0.173
ATGTAGTA: -0.13
TAACGAAA: -0.102
TCCAACAA: -0.252
CGTTAGAC: 0.0565
TCCCCGGA: 0.028
CCGCACCG: 0.285
CCATCCCG: 0.219
AAAGCCGG: 0.342
CCGTTAAC: 0.313

Series 6
Target: RNA binding protein fox-1 homolog 2, RRM domain, GST-SBP tag (RBFOX2, Homo sapiens, UniProt O43251-10, residues 100-194)
Technique: RNA Bind-n-Seq
Form: RNA
Sample: in vitro
Tested at: 365 nM
Setting: natural RNA segment, single round, ends assumed
Baseline: no-protein control
Reading: higher = stronger binding
Measurement: RBNS enrichment (R)
Residues (chain): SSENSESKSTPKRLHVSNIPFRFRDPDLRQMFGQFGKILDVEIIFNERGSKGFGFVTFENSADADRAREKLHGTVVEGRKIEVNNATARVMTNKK
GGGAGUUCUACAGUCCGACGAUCACCACCAGGGGCUCUGAACUGCAGCUGAUGUUAUCAGCAGGCCAUGCAUCCUGCUGCCAAGGGUGGACACGGCUGCAGACUUCUGGGGGAAUUGUCGCCUCCUGCUCUUUUGGAAUUCUCGGGUGCCAA: 0.556
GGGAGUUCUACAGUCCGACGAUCCCUCCCACCCCCAUGGGUGCUAGGAGGAGGUGACUUUAUAUACCAGCUUCAUUGGGCUGCUUCCUCUGAAGGAAUCCUUGAGAGUCAGUGAAUGUUCUAUCAGCAUGAGUUGGAAUUCUCGGGUGCCAA: 1
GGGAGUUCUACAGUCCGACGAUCUUAAACUGGCAUAUAGAAAAAAAGGAGGAUUUUUCUGCAUUGUAAAAUAAUCAGUAUGGUUUAUAUGUUGAAUUUGACAUUUGUGUGUAAUUUCAUGGUGGCCUAGUGUUUGGAAUUCUCGGGUGCCAA: 1.22
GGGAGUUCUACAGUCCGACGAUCGGAUGGCAUUUUCCAGGGCAGGAGAAAGUAUGAGAGCCUCAGGAAACCCCAUCAAGGACCGAGUAUGUGUCUGGUUCCUUGGGUGGGACGAUUCCUGACCACACUGUCCAUGGAAUUCUCGGGUGCCAA: 3.4
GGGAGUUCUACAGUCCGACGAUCAAAGAGUGAUAGUCUUUUGCUUUUGGCAAAACUCUACUUAAUCCAAUGGGUUUUUCCCUGUACAGUAGAUUUUCCAAAUGUAAUAAACUUUAAUAUAAAGUAGUCCUGUGUGGAAUUCUCGGGUGCCAA: 0.393
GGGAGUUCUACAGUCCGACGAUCUCACUAUGCGCUAAACGUAAUCCUGACUUUUUGACCCCAGUUACCAUUAAUAGUUUCUGGUUGACCAUUUGAACAUGUAUUAACUUAGGAAGACUAAUUGCCAAUAACGUUGGAAUUCUCGGGUGCCAA: 0.523
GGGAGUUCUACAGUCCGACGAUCAAAUGUCCCAUAGUCCUCUCACACCCUGUGUUCCAGCCUUCAGUGUUUGGACAGAGCACCACUGUCACCAAGGAGCCUGUGUGAGACACACUGCUGAGACUGCCUCUUGUUGGAAUUCUCGGGUGCCAA: 0.463
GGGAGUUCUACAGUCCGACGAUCAGGUACACUGUUUCCAUGUUAUGUUUCUACACAUUGCUACCUCAGUGCUCCUGGAAACUUAGCUUUUGAUGUCUCCAAGUAGUCCACCUUCAUUUAACUCUUUGAAACUGUGGAAUUCUCGGGUGCCAA: 0.335
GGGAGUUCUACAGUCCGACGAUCCUUGAAUCCUCUAUUAAUUACUGUGUGUGAGCCAGAGGGAGCUGUGGUAAGGGUUGGGCCCCCAGCCUGUAGGGAACUUUCUGGACUCCCACUCUUUGAAUCGAUAUAGGUGGAAUUCUCGGGUGCCAA: 0.491
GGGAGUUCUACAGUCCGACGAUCGCAAAAUGAAGUUGGUGGACUCCGCCUUAAUGAGAAAGGCUUAGAGCAGUUAUGAGGUGCUGUUAUGCUGGGAGUCCCUGAUCUAUCAGCAUAGGAGAAAAAAGUAUGAUUGGAAUUCUCGGGUGCCAA: 2.68
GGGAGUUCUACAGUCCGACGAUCAACUGGAUGGACGUUGUUAGGGUGAGAAAUAAAAGGACAGCCUCCAAAGGUUGAGAAUGAGAAUUGUUUUUUCCUGGAUAUCAAAGGGAUUAUCACAGCGCAAUCAUUGUUGGAAUUCUCGGGUGCCAA: 0.885
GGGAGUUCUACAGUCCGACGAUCCCUGUGGGCCUGCUCAGCAUGACUUCCAGGACCCCACUGUUCUGGACUGACAUCCCAGGUGUCACAGGCUCAGGGAGUGGCACCAGGUCACCUCUCCAGGGACUGAGCAUUGGAAUUCUCGGGUGCCAA: 6.32
